Measured values pooled from the literature.
A part holds a random share of what one study measured. Substitutions count along the parent as printed.

Study 1 — target: CCNE2, cyclin fold, Cln2 fusion (human); technique: yeast growth competition, sequencing; sample: yeast; notes: strong parent motif; relative to: not given; reading: higher = stronger binding; endpoint: normalised enrichment score
Parent: GMNC docking peptide (human); KNAKRNLSSEFAN; partner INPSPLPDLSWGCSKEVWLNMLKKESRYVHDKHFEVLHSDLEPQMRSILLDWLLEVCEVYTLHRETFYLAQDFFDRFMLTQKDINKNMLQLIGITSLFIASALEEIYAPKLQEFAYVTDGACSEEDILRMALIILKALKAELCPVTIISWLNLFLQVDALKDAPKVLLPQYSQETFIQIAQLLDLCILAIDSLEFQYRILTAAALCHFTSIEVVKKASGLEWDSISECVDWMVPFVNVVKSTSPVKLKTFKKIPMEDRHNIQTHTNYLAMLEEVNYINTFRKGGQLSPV
F11K: 0.161
L7K: 0.0444
N6P: 0.153
N6K: 0.243

Study 2 — technique: protein binding microarray; form: double-stranded DNA, one strand shown; sample: in vitro; tested at: not given; relative to: not given; reading: higher = stronger binding; endpoint: E-score
Target: Histone acetyltransferase KAT6A, winged helix 2, GST fusion (KAT6A, Homo sapiens, UniProt Q92794, residues 85-181)
Notes: 8-mer, flanks averaged, mean of 2 arrays, mostly near background
Residues (chain): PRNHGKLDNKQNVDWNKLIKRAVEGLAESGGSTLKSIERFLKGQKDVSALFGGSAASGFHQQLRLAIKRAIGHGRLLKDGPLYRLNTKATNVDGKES
GGCTTTAA: -0.0797
AGTCTCTC: -0.172
TGTCCCAA: -0.0338
AGAATTCA: -0.0556
CGAGGATA: 0.00457

Study 3 — technique: protein-binding microarray; form: double-stranded DNA, one strand shown; sample: in vitro; tested at: 2540 nM top; notes: 60-bp whole probe; with: salmon DNA 0.4 mg/ml; relative to: random background probes; reading: higher = stronger binding; endpoint: fitted relative affinity; constant ends, left off below: GCCTAGCAC … GTCTTGATTCGCTTGACGCTGCTG
Target: Interferon regulatory factor 3, full length, phosphomimetic (IRF3, Homo sapiens, UniProt Q14653, residues 1-427, S386D/S396D/S398D/S402D/T404D/S405D)
Construct (chain): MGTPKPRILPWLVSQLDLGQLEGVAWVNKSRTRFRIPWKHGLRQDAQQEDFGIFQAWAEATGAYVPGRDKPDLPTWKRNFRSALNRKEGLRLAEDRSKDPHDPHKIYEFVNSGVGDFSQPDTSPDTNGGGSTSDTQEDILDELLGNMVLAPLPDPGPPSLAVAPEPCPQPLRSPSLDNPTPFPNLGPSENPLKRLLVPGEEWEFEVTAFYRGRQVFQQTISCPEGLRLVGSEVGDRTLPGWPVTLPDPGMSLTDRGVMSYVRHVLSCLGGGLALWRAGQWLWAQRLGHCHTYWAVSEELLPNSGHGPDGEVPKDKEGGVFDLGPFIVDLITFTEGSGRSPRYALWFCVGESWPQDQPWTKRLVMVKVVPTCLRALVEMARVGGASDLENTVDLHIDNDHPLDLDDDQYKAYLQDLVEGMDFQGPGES
CCTGGCTCCATGGAATTTTTGTGCTAG: -0.708 z-score
TTAGATATCAGTACCGATTAGTGCTAG: 1.16 z-score
TCAAGTTTATACCTTAGACTGTGCTAG: -0.264 z-score
ACCACTTTCCATTTCTGTTTGTGCTAG: 7.53 z-score
CTTTCTATGTCTGTTTTTGCGTGCTAG: 4.72 z-score
GACGATACCGGGACTGGAGACGTGCTA: -0.271 z-score
TCAAGTATGACTCTGCCACTGTGCTAG: -0.61 z-score

Further values, each from its own experiment
PhoQ, residues 284 288 289 292 302 303 SSTLSG
fold induction (PhoP, residues 12 14 15 18 19 QYCSL (Escherichia coli, UniProt P23836); Sort-seq, refers to: YFP reporter; E. coli; PhoQ-PhoP variant library, with: 10 µM Mg2+; relative to: high Mg2+ state, higher = stronger signaling): 0.686

For quick reference, copied from above (study 3):
TCAAGTTTATACCTTAGACTGTGCTAG: -0.264 z-score
